Measured values of several laboratories.
A part holds a random share of what one study measured.

Series 1
Target: RING finger protein unkempt homolog, zinc fingers 1-6, GST-SBP tag (UNK, Homo sapiens, UniProt Q9C0B0, residues 30-357)
Chain of UniProt Q9C0B0 (30-357, looked up): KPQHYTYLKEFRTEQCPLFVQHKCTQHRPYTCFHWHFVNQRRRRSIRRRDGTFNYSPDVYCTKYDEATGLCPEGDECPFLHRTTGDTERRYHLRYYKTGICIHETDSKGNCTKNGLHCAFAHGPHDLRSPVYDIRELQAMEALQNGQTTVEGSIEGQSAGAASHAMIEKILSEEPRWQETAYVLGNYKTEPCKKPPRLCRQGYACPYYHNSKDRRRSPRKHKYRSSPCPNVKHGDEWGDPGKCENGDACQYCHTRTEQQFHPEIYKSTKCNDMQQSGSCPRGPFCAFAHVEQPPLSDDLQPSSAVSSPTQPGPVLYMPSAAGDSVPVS
Method: RNA Bind-n-Seq
Molecule type: RNA
Matrix: in vitro
Tested at: not given
Setting: RNA with constant flanks, human and mouse sites, ends assumed
Relative to: input RNA pool
Direction: higher = stronger binding
Sequence | bound/input enrichment [ratio]
GGGAGUUCUACAGUCCGACGAUCGAAAAGUUAGAAAAAAUGAUGGAGAAAAAAGGCACUAAAAUCCAGACUCCUGCAGCACCCAAGCAAGUUUUCCCAUUUCGAGACAUCUUUUAUUAUGAAGACGAUAGUGAAGGAGAGGACCAACAGAGGAUUGAGCAUCA | 0.839
GGGAGUUCUACAGUCCGACGAUCAGUUUGCUUGGGUUGGUUUUUUGUUUUUGUUUUUCCUGGAAAACAUUCAGUGAGAGAAGUAAUAGAUUGAAAACAAAUGAAUUCUCAACUUCUAUGUUGACCAUGUAGAGAGUUCAGACACAACAGAGGAUUGAGCAUCA | 0.32
GGGAGUUCUACAGUCCGACGAUCCAUGCACACAAGUCCCCCUACUGCUGCCCGGAGUGUGGGGUCCUCUGCCGCUCUGCCUACUUCCAGACCCAUGUAAAGGAGAAUUGCCUGCACUAUGCCCGCAAGGUGGGCUACAGGUGCCAACAGAGGAUUGAGCAUCA | 0.188

Series 2
Target: PABPC1L2, full length, GST fusion (mouse, UniProt A0ABA7IW68)
Method: RNAcompete
Molecule type: RNA
Matrix: in vitro
Tested at: 20 nM
Setting: 7-mer, probes averaged, single round
Relative to: mean of 7-mers
Direction: higher = stronger binding
Residues (chain): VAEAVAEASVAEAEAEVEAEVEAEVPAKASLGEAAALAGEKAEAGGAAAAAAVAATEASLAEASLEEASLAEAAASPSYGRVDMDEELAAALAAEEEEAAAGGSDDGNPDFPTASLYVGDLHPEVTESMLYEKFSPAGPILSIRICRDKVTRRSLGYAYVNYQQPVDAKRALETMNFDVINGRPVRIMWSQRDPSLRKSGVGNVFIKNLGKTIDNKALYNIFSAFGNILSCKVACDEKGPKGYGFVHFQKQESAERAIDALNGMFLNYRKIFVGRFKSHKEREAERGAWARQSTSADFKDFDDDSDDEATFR
Sequence | 7-mer Z-score
CGUUAUU | -0.284
UAUGCUA | -0.211
GACAGUG | -0.135
CGCCGAA | -0.0935
UUAAAAG | 1.4
CAUACCU | -0.309

Series 3
Target: Histone acetyltransferase KAT6A, winged helix 1, GST fusion (KAT6A, Homo sapiens, UniProt Q92794, residues 1-85)
Method: protein binding microarray
Molecule type: double-stranded DNA, one strand shown
Matrix: in vitro
Tested at: not given
Setting: 8-mer, flanks averaged, mean of 2 arrays, mostly near background
Relative to: not given
Direction: higher = stronger binding
Residues (chain): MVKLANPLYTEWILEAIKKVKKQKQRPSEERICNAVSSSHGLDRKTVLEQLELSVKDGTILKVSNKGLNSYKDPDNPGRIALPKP
Sequence | E-score
AGGAATGC | -0.0877
CAACTTAA | -0.19
CAGCTGCA | -0.0599
AACCAGCG | 0.0773

Other studies, line by line
Substance | target | assay | system | setting | how to read | quantity | value
PhoQ, residues 284 288 289 292 302 303 AMDMFI | PhoP, residues 12 14 15 18 19 HLGGL (Escherichia coli, UniProt P23836) | Sort-seq, refers to: YFP reporter | E. coli | PhoQ-PhoP variant library, with: 10 µM Mg2+ | relative to: high Mg2+ state, higher = stronger signaling | fold induction | 2.22

A few entries again (series 2):
Sequence | 7-mer Z-score
UAUGCUA | -0.211
